Measurements of several laboratories.
A part holds a random share of what one study measured. Changes are numbered by the printed parent chain.

Study 1
Target: CCND2, cyclin fold, Cln2 fusion (human)
Method: yeast growth competition, sequencing
Sample: yeast
Notes: weak parent motif
Reference: not given
Reading: higher = stronger binding
Parent: SAMHD1 docking peptide (human); ASKSRVQLFKDDP; partner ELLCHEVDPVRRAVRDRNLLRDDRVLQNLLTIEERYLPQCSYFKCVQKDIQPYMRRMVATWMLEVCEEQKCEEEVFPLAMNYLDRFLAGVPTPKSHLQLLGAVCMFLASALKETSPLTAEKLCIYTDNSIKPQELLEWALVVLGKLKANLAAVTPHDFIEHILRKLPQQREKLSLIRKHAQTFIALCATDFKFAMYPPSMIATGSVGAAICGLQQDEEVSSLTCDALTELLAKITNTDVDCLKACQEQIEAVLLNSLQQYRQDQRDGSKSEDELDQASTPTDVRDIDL
Substitution	normalised enrichment score
S2V	0.379
V6N	0.129
V6D	-0.0987
F9I	0.254
D11L	-0.468
D11V	0.0804
S4W	-0.00467
V6E	0.102
K10E	0.207
V6R	-0.0496
K10V	-0.0266
L8H	-0.0742
S2T	-0.0175
D11G	0.135
S2P	-0.049
S2A	0.0808
D11K	-0.167
V6Q	-0.544
S2N	0.0838
K10A	0.0037
Q7I	-0.127
D12L	-0.265
Q7D	0.0743
S2H	0.346
F9S	-0.118

Study 2
Target: Ras GTPase-activating protein-binding protein 1, RRM domain (G3BP1, Homo sapiens, UniProt Q13283)
UniProt Q13283, sequence (whole entry, looked up): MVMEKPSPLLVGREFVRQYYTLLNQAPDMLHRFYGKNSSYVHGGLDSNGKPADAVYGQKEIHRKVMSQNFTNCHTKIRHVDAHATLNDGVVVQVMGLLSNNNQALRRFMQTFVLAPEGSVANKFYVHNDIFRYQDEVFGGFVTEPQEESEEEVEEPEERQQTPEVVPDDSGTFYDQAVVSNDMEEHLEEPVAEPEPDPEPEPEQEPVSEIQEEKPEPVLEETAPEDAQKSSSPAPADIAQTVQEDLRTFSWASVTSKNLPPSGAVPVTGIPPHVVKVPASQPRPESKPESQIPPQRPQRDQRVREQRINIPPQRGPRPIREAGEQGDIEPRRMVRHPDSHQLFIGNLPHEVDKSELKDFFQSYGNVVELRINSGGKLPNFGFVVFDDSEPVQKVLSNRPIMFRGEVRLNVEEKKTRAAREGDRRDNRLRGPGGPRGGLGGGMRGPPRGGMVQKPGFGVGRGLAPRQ
Method: RNA Bind-n-Seq
Molecule type: RNA
Sample: in vitro
Concentration: 1 µM
Notes: whole 134-nt RNA, ends assumed
Together with: 150 mM KCl
Reference: input library
Reading: higher = stronger binding
All sequences stand within: GGGAGUUCUACAGUCCGACGAUC … UGGAAUUCUCGGGUGUCAAGG
Oligonucleotide	log2 enrichment
GCAGGAAGUAAAAACAAAUGGAAAUGCUUCGGAUAGUGGCAAAGGUGGGGGUUGCUAAGGAAAGGGUGGGAUGGGAGUGGGUAAAGAGUU	1.23
CAAGUCCUGUGCUACACAUCGUAUGUACCGAAUCGGUGGAAAAAGGUUUUUUUGGAAAGUAUUAUGUUACGCCGUUCGGAUCUGCACUUC	-0.253
CAAGUCCUGUGCUACACAUCGUAUGUACCGAAUCGGUUUGGGGUUUGGGUUUGGGAAAGUAUUAUGUUACGCCGUUCGGAUCUGCACUUC	-0.204
UCAGGAAGUAAAAACAAAUGGAAAUGCUUCGGAUAGUGGCAGGGGUGGGGGUUGCUAAGGAAAGGGUGGGAUGGGAGUGGGUAAAGAGUU	0.87
UGGCCCUGGUGGCAUGCGGGGAGGAAGAGGUGGCCUCAUGGAUCGUGGUGGUCCCGGUGGAAUGUCCAGAGGUGGCCGUGGUGGAGACAG	0.823
AGUCCUGUGCUACACAUCGUAUGUACCGAAUCGGAAAAAGGAAAAAGGGAAAAAGGGAAAGUAUUAUGUUACGCCGUUCGGAUCUGCACU	-0.149
GCAGGAAGUAAAAACAAAUGGAAAUGCUUCGGAUAGUGGCAGGGAUGGGGGUUGCUAAGGAAAGGGUGGGAUGGGAGUGGGUAAAGAGUU	0.962
GCAGGAAGUAAAAACAAAUGGAAAUGCUUCGGAUAGUGGCAGGGGUGGGGGUUGCUAAGGAAAGGGUGGGAUGAAAGUGGGUAAAGAGUU	1.28
CCUGUGCUACACAUCGUAUGUACCGAAUCGGGAAAAAAAGGGAAAAAAAGGGUUUUUGGGAAAGUAUUAUGUUACGCCGUUCGGAUCUGC	-0.00466
AAGUCCUGUGCUACACAUCGUAUGUACCGAAUCGGCCCCGGGGCCCCGGGGCCCCGGAAAGUAUUAUGUUACGCCGUUCGGAUCUGCACU	-0.172
UCCUCAAGUCCUGUGCUACACAUCGUAUGUACCGAAUCGGAGGGAGGAGGGGAAAGUAUUAUGUUACGCCGUUCGGAUCUGCACUUCCAG	-0.0992
UAACUUUAGAGGAGGAUCUGAUGAAUAUGGCAGUGGACGUGGAUUUGGGGAUGGCUAUAAUGGGUAUGGAGGAGGACCUGGAGGUGGCAA	-0.694
ACCAUGCAGGUGGGCAUCUUUGGGAAGUGGGGCAAGGGGGGGAUAGGGAGGGGGGGAACACUUUGGGAACAGGUGGUCCCAGGUCGUUUC	0.348
UAACUUUAGAGGAGGAUCUGAUGGAUAUGGCAGUGGACGUGGAUUUGGGGAUGGCUAUAAUGGGUAUGGAGGCGGACCUGGAGGUGGCAA	-0.331

Study 3
Target: Protein max, full length (MAX, Homo sapiens, UniProt P61244-2, residues 1-151)
Method: protein-binding microarray
Molecule type: double-stranded DNA, one strand shown
Sample: in vitro
Concentration: not given
Notes: k-mer, scored over probes, only values ≥0.25
Reading: higher = stronger binding
Oligonucleotide	E-score
CAGGTGTC	0.322
CCCATGCA	0.365
GCGGTCAC	0.265
CATGCTTA	0.435
ACCCGCCC	0.266
CGCCACGC	0.427
CCACGCCA	0.359
GAACGTGC	0.387
ACATGCAT	0.378
TACCACGA	0.285
GGGTCACA	0.261
CGTGCGCA	0.4
ACGTGAGT	0.354
GCACATGC	0.478
CATCGTGG	0.364
CATGCCAG	0.286
CCCCTGAC	0.283
GTGAAACA	0.255
CCCTCCCA	0.28
ACGCGGAC	0.359
CGCCTGAC	0.26
GACCACGC	0.445
CTCACGCA	0.296
CCACGAGC	0.374
CACATGGG	0.473

Study 4
Target: Histone acetyltransferase KAT6A, winged helix 1, GST fusion (KAT6A, Homo sapiens, UniProt Q92794, residues 1-85)
Method: protein binding microarray
Molecule type: double-stranded DNA, one strand shown
Sample: in vitro
Concentration: not given
Notes: 8-mer, flanks averaged, mean of 2 arrays, mostly near background
Reference: not given
Reading: higher = stronger binding
Construct (chain): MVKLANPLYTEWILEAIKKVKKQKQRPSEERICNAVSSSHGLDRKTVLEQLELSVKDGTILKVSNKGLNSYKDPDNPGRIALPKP
Oligonucleotide	E-score
ACTAGAAC	-0.0143
CAATTATG	0.209
GGGCTGGA	-0.127
ACTAAAAC	-0.0581
CCTCAAAC	-0.0913
CGATTTTC	0.00957
GGCGCACC	0.285
CCGCGGGC	0.44
CCGGGTTA	0.262
CGAGTGGA	-0.15
CTGAGCAC	-0.179
CTCTAACC	-0.0567
AGACGGTG	-0.00449
CGTAGGTC	0.0273
CGCGTCAC	0.171
TAACTTCA	-0.0857

Study 5
Target: Interferon regulatory factor 7, full length, phosphomimetic (IRF7, Homo sapiens, UniProt Q92985, residues 1-503, S101K/S471D/S472D/S475D/S476D/S477D/S483D/S484D/S487D)
Method: protein-binding microarray
Molecule type: double-stranded DNA, one strand shown
Sample: in vitro
Concentration: 250 nM
Notes: 60-bp whole probe
Together with: salmon DNA 0.4 mg/ml
Reference: random background probes
Reading: higher = stronger binding
All sequences stand within: GCCTAGCAC … GTCTTGATTCGCTTGACGCTGCTG
Construct (chain): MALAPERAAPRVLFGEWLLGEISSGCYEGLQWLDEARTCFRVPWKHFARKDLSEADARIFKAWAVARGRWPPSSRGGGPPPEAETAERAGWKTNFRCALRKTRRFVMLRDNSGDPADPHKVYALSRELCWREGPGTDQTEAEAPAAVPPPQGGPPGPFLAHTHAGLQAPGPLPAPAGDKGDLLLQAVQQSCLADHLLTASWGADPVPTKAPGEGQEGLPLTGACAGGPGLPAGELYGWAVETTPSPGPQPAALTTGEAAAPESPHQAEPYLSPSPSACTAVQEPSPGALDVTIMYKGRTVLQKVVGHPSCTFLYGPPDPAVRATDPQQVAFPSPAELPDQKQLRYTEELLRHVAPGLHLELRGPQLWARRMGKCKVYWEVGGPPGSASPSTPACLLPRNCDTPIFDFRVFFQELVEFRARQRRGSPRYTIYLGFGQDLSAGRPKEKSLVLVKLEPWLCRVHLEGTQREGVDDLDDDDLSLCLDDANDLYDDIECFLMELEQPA
Oligonucleotide	log fluorescence [z-score]
ATGAGCCTCTGTTTTGAGCAGTGCTAG	-0.193
TTAGATATCGGGTTTCGATAAGTGCTA	2.71
TTAGTTCTCAGTCTCGATTAGTGCTAG	2.26
GACGGACTCGACTATCGGGACGTGCTA	-0.0288
TCATTTCTAAAACTCTTACTGTGCTAG	1.46
GTCGGTATCGGGACTGGGGACGTGCTA	0.131
TTAGGTATCGGGCTCGGTTAGTGCTAG	0.733
TTAGGTCTCGGACTGGGCTAGTGCTAG	0.0474
GACGGTTTCGACTTTCGGCACGTGCTA	10.7
TTACCTTTTCACTTTACACAGTGCTAG	2.8
TCACCCCTCCCCCTCAGACTGTGCTAG	-0.177
TTAGGTATCGACACTGGGGTAGTGCTA	-0.0578
TTAGATCTCAGTTTGGATTAGTGCTAG	0.241
TCATTTTTCATTGTTTTACTGTGCTAG	1.13
GACGGACTGGGGTCTCGGGACGTGCTA	-0.555
GACTGTTTCGGTTCCGGGACGTGCTAG	7.25
GACGGACTGGCGTATCGGGACGTGCTA	-0.872
TCATCTCTGGTCTTTGTACTGTGCTAG	0.187
TTAGATATCGGGACTGGATTAGTGCTA	-0.0025
TCAGCTCTGCGGTTCAGACTGTGCTAG	-0.801
GACGGTCTCCTTCTCCTCACGTGCTAG	0.146
TTAGATTTCAGACAGGATTAGTGCTAG	0.0488
ATGCTTCTGTATTCATGAAGGTGCTAG	0.553
TCACATATTTGTTTCCAACTGTGCTAG	1.23
GACGGACTGGGCCTGGGGACGTGCTAG	-0.893

Single results of other studies
Molecule	target	test	system	setting	how to read	endpoint	result
PhoQ, residues 284 288 289 292 302 303 SSCCRF	PhoP, residues 12 14 15 18 19 SYFRT (Escherichia coli, UniProt P23836)	Sort-seq, item: YFP reporter	E. coli	PhoQ-PhoP variant library, together with: 10 µM Mg2+	reference: high Mg2+ state, higher = stronger signaling	fold induction	11.4

For quick reference, copied from above (study 5):
Oligonucleotide	log fluorescence [z-score]
GACGGACTGGGGTCTCGGGACGTGCTA	-0.555
TTAGATTTCAGACAGGATTAGTGCTAG	0.0488
GACGGACTGGCGTATCGGGACGTGCTA	-0.872
ATGAGCCTCTGTTTTGAGCAGTGCTAG	-0.193
TTAGGTCTCGGACTGGGCTAGTGCTAG	0.0474
GACGGTTTCGACTTTCGGCACGTGCTA	10.7
